Measured values from different studies.
Parts stem from different laboratories: compare values within a part only. Positions count from the first letter of the parent shown.

Block 1
Target: Ras GTPase-activating protein-binding protein 1, RRM domain (G3BP1, Homo sapiens, UniProt Q13283)
Chain of UniProt Q13283 (whole entry, looked up): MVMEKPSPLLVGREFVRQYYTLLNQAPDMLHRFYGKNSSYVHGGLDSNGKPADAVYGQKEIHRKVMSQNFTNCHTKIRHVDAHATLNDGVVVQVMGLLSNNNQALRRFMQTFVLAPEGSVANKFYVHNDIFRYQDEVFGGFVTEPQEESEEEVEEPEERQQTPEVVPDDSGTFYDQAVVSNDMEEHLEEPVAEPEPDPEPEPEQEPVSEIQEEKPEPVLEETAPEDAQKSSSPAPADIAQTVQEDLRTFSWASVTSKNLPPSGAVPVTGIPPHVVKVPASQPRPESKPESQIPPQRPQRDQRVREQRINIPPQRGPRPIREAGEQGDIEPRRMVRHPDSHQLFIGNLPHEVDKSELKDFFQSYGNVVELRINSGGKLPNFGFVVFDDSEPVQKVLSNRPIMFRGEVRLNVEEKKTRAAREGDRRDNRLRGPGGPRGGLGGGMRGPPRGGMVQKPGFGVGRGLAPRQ
Technique: RNA Bind-n-Seq
Molecule type: RNA
Medium: in vitro
Concentration: 1 µM
Notes: whole 134-nt RNA, ends assumed
With: 150 mM KCl
Reference: input library
Reading: higher = stronger binding
All sequences stand within: GGGAGUUCUACAGUCCGACGAUC … UGGAAUUCUCGGGUGUCAAGG
Oligonucleotide	log2 enrichment
UGUGAACUUGUAUGUGAAGAAUCUGGACGACUCCAUUGAUGACGACAAACUGAGGAAAGAGUUCUCUCCCUAUGGAGUAAUUACCAGUGC	0.00438
CCUGUGCUACACAUCGUAUGUACCGAAUCGGAAAAAAAGGGAAAAAAAGGGAAAAAAAGGAAAGUAUUAUGUUACGCCGUUCGGAUCUGC	0.0265
UCCUGUGCUACACAUCGUAUGUACCGAAUCGGGGCCCCCGGGGCCCCCGGGGCCCCCGGAAAGUAUUAUGUUACGCCGUUCGGAUCUGCA	-0.703
CCUCAAGUCCUGUGCUACACAUCGUAUGUACCGAAUCGGUUGGGGUUGGUUGGAAAGUAUUAUGUUACGCCGUUCGGAUCUGCACUUCCA	-0.286
CUCAAGUCCUGUGCUACACAUCGUAUGUACCGAAUCGGGGUUGGUUGGGUUGGAAAGUAUUAUGUUACGCCGUUCGGAUCUGCACUUCCA	-0.259
UGGCCCUGGUGGCAUGCGGGGAGGAAGAGGUGGCCUCAUGGAUCGUGGUGGUCCCGGUGGACUGUUCAGAGGUGGCCGUGGUGGAGACAG	0.811
UUAAGGAAGGACACUGAGUCAUGCACAAGUCCUUGCCUUCUUGGUGCCCCUCGGAAAGCACAAGACCCCUCCUCUGCUGGGUGUGAUCAA	-0.00649
AGUCCUGUGCUACACAUCGUAUGUACCGAAUCGGGAAAGGGAAAAAAAGGGAAAGGGAAAGUAUUAUGUUACGCCGUUCGGAUCUGCACU	0.375
CUCAACGUUGACAGUAAUGAACAAGGCUCCUAUGUAGUGGCCAUGGAAACCUUUACCAACUUAGGACCCAUUGUCGAUAUGUGCGUGGUG	-0.188
UUUCUUCUGCUGCUGCUAGUCAUGAGAUCAAGGUGGGUCUGAGAAUGGCCAUUCAGAGGCCCUGGAUAGUAACCAGGUAAUGGAUGACAC	-0.231
UUCAUGAGGACCUCCGCCUGCUCUUGGAGACCCACCUGCCGUCCAAAAAGAAGAAAGUACUCUUGGGAGUUGGGGAUCCCAAGAUUGGUG	-0.0659
UUAGAAGAACCCGAAGAACCUAAAGUGCUAACACCAGAAGAACAAUUAGCAGAUAAACUGCGGCUAAAGAAAUUACAGGAAGAGUCAGAC	0.165
CAAGUCCUGUGCUACACAUCGUAUGUACCGAAUCGGAAAGGUUUUUUUGGAAAGGAAAGUAUUAUGUUACGCCGUUCGGAUCUGCACUUC	-0.368
CAAGUCCUGUGCUACACAUCGUAUGUACCGAAUCGGGUGGGAAAGGGAAAAAGGGAAAGUAUUAUGUUACGCCGUUCGGAUCUGCACUUC	0.709

Block 2
Target: RING finger protein unkempt homolog, zinc fingers 1-6, SBP tag (UNK, Homo sapiens, UniProt Q9C0B0, residues 30-357)
Chain of UniProt Q9C0B0 (30-357, looked up): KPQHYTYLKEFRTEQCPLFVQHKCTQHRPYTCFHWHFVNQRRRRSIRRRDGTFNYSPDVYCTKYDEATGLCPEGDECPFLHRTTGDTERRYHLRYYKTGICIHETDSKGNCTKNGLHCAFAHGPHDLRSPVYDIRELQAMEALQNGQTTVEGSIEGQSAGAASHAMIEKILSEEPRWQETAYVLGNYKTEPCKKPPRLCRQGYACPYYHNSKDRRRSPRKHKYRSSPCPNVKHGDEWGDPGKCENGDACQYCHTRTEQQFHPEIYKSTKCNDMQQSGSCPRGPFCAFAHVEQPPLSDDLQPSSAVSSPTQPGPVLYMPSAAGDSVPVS
Technique: RNA Bind-n-Seq
Molecule type: RNA
Medium: in vitro
Concentration: 100 nM
Notes: RNA with constant flanks, vertebrate orthologous sites, ends assumed
Reference: input RNA pool
Reading: higher = stronger binding
All sequences stand within: GGGAGUUCUACAGUCCGACGAUC … CAACAGAGGAUUGAGCAUCA
Oligonucleotide	bound/input enrichment [ratio]
CUACAAUAAUGAAAACCUACAGAAAUUUUUUUUUGUAUUUUUCAUUUUCCCCUUAGGCAUAAUUAGUCUUUUUUCCCCAGGCAGAUCAUUCUGAGUGUGCGAGUGUGUGUGCACAUGUUA	1.31
CUCCCUGUCACUGUGAUAUUUAAAAUAUGCACAGUCCUAAUUUUGUUUCCUAAAUGAUUCUAGUAAUUUCCUAGCAAUAGCUCUAUCUUACCUGUUAUUUAUCAAUUUCCCCCCAAGGUU	2.24
CCUGGAUAUCAGUUAGAAUGGGUUCUUCUUCUACUUCUCUCACAAGGGAAAAAGCCCCAAUAGAUUCCUUACACAUCUGAUGAUACUGUUCUGUCUCAUUUUCUGUUUUUACAUAGGCAU	0.504
ACCCUCAACUAGCUUUGAACAAUGGUACUAUUGAGCUGGUUCAUAAGUUGGUUUUGGGAAUUUAGGUCUUUGAUUUCUCUACUGCUAAUGGUCAGAGAGACAGAAAUUAUAGCCAGGAAC	0.339
GUCCUACCUGUGCAGAUCUCACAACACUGAAUGCAAAGUAGCAAUGUUCAUAGCCACAGCACGGUAGCUUUAGGGCACUAUUGCCAUGGUUUUAUUCAUGUGCAAGUUUUGAAAAUGUAU	0.692
UCAUUGUACUGCCAGCAUCAUCCUAGUGUUAAACCAGCCGCUGUGAUAACUAGUGUGUGCUAGAAUUAUUUACUAUUACCUUUUAAACUAUGCGCUUUGCCCAAUACUUGAAAGCAAUCC	2.8
CCCGCUGCUCCUGGGUGCGUGACUGAGGGUGAAGCAUCCACCAGCGCUGCAAGGGGUCCAUAGUAUUUUUUUGCUGCCUCAGUCCCCAGAGCCUUCAAGCAGAAGUGGCAGUAGAUUGUU	1.17
UUUUAUUGAUCAGGUCUGUAAAUGUGUACUAAAAAAAUCAGAGUUUAUUUAUAAACAGAAUAGUUUAUUUAAAGACAAGGUCUUUCCUCAUUGUGGUAUGCAUUAAUUCCAUUUGUUACU	0.113
UAUUUAUACUGCCAAACGUUUCUGCCCGUCUUUCUUUGUCCUUCUUUUUUUCCUGGUAGUUCUCGUUGUUACCCGCACCGUUUUUAUGUCUCCUUCACGGAAGGGCUAGAGUUUUAACUU	0.708
GCAAAUCCAAUCACUGUGAUAUUUAAAAUAUGCACAGUCCUAAUUCUUUCUUGAUGAUCCUAGUAUUUUUCUAGCUGUAUCUUUAUAUCUCAUACUGUUAUUUAUCAGUUUUGUUCCCCU	0.94
CAUAGCCUGGCUACUGUGAUACUCAAAAUAUCCACAGUUCUCACUUGUUCCAAAUGAUCCUAAUAAUGGCCUAGAAAUAUCCUCUCUUACCUGUUAUUUAUCAAUUUUUCCCAGUAUUUU	0.778

Block 3
Target: CCNB1, cyclin fold, Cln2 fusion (human)
Technique: yeast growth competition, sequencing
Medium: yeast
Notes: strong parent motif
Reference: not given
Reading: higher = stronger binding
Starting sequence: MICAL3 docking peptide (human); LQLRRQLSFSEDS; partner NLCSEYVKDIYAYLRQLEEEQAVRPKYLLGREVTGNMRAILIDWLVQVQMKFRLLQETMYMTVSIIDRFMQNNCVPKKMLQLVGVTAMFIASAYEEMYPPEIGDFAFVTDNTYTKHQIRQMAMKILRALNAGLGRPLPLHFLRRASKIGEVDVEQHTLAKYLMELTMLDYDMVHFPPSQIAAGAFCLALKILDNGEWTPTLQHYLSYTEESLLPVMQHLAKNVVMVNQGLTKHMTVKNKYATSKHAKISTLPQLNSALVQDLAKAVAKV
Variant	normalised enrichment score
E11H	2.04
L3E	0.718
R4W	1.88
L3K	0.272
D12E	5.26
R4H	2.46
D12A	4.64
S8D	3.75
S10R	2.98
Q2I	3.98
Q6M	4.2
F9N	-0.0624
D12Y	3.52
S10A	3.38
L3C	3.82
L7F	-0.384
Q2W	3.26
F9W	1.95
S10N	4.66
R4K	3.62
D12K	3.16
Q6G	1.83
R5Y	0.837
E11R	1.5
S10G	4.7

Block 4
Target: Sal-like protein 4, full length isoform B (SALL4, Homo sapiens, UniProt Q9UJQ4-2, residues 1-616)
Technique: universal PBM
Molecule type: double-stranded DNA, one strand shown
Medium: in vitro
Concentration: not given
Notes: 8-mer, flanks averaged, mean of replicates
Reading: higher = stronger binding
Construct (chain): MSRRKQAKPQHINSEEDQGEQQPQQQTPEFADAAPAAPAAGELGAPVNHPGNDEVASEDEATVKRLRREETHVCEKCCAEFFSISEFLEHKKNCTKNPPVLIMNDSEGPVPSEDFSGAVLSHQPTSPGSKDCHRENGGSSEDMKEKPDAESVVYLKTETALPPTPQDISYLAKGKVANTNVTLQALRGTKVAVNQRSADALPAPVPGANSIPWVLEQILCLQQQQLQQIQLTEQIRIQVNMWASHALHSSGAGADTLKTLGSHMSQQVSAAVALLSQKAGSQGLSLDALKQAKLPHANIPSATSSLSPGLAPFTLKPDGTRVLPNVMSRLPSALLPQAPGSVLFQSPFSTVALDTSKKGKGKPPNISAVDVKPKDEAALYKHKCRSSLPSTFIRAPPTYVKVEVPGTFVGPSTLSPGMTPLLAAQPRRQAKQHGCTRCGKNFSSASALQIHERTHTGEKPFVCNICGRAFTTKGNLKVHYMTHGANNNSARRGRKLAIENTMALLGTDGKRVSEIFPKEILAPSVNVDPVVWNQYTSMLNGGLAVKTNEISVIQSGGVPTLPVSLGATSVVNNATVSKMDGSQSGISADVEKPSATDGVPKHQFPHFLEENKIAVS
Oligonucleotide	E-score
GACGTGCC	-0.35
TGCGGTAA	0.178
AATAGCGG	-0.0204
ACAACTGT	0.0138
CTTCCCAC	-0.112
CCGTATTC	0.0388
ACCTTGAG	0.0735
GACTAAGC	-0.2
CTTCTCCC	-0.0591
ATACTGCA	0.106
CCAATACC	-0.106
GTCCCAAA	-0.0968
GTTCACTA	0.0544
CTTAGGGA	-0.115
CCAGGAAG	-0.0955
CGAGTTGC	-0.151
CAAACTGG	-0.278
CCAAGGGG	-0.173
AGATTTAA	0.162
AGGAGGTG	-0.176
CTAATAAG	0.222
CCATGGAG	-0.15
AGAAGATC	-0.0623
ACGCCTGC	-0.335

Block 5
Target: ABI1, truncated, D143A, DHFR fusion (Arabidopsis thaliana)
Technique: DHFR PCA, deep sequencing
Medium: yeast
Notes: methotrexate growth selection, single substitutions
With: (+)-ABA 0.032 µM
Reference: wild-type fitted maximum
Reading: higher = stronger binding
Starting sequence: PYL1, truncated, DHFR fusion (Arabidopsis thaliana); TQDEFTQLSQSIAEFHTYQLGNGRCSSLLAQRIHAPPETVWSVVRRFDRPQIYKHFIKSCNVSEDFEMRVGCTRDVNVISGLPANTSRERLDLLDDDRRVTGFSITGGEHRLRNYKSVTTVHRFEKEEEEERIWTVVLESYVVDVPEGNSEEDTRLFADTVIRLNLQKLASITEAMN
Variant	relative binding score [%]
V62K	1.41
D95C	-3.59
E38K	4.77
G71W	-2.68
R132D	65.3
W41N	-4.73
T39H	9.51
Q31G	-5.85
E152T	7.68
W41I	-17.9
F157L	8.2
G23N	23.1
T154G	-5.53
A13R	33.9
I52E	13.1
E130P	62.9
R123G	72.6
V161F	15.8
E64G	14.9
V121Q	-1.11
E139F	-17

Block 6
Target: Histone acetyltransferase KAT6A, both winged helices, GST fusion (KAT6A, Homo sapiens, UniProt Q92794, residues 1-181)
Technique: protein binding microarray
Molecule type: double-stranded DNA, one strand shown
Medium: in vitro
Concentration: not given
Notes: 8-mer, flanks averaged, mean of 2 arrays, mostly near background
Reference: not given
Reading: higher = stronger binding
Residues (chain): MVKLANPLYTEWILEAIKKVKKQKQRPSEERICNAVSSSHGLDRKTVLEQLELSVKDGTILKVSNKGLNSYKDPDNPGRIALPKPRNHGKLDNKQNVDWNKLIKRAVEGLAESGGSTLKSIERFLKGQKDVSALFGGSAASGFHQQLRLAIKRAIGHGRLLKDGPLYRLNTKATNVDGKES
Oligonucleotide	E-score
ATGGAAGG	-0.0856
GCGTACAC	0.168
CGTAGCAA	-0.0238
GCGCTGAC	0.228
ACAGTGAA	-0.0911
AGCTTGAG	-0.159
ACGGTAGC	0.183
AAAGTCTT	-0.0952
GATGATAA	-0.0345
CCAGCTTA	0.0378
ACAGGTGC	-0.0908
ACACCCGA	0.105
GGATCATA	0.0278
GACCTGCA	-0.163
AGTTAGAG	-0.216
CTGCAAAC	-0.144
GCACCTAC	-0.0103
AGCGCTTG	0.266
ACGGTGAG	0.0454

A few entries again (block 3):
Variant	normalised enrichment score
D12E	5.26
R4H	2.46
D12A	4.64
S8D	3.75
S10R	2.98
Q2I	3.98
Q6M	4.2
F9N	-0.0624
D12Y	3.52
S10A	3.38
L3C	3.82
L7F	-0.384
Q2W	3.26
